Published values gathered from unrelated publications.

SMILES | test | system | setting | measurement | result
CN[C@@H](C)C(=O)N[C@H]1CN(S(=O)(=O)c2cccc(S(=O)(=O)N3CC[C@H]4CC[C@@H](C(=O)NC(c5ccccc5)c5ccccc5)N4C(=O)[C@@H](NC(=O)[C@H](C)NC)C3)c2)CC[C@H]2CC[C@@H](C(=O)NC(c3ccccc3)c3ccccc3)N2C1=O |  | human, advanced solid tumours | 7 mg | patients with treatment-related asthenia | 0%
CN(C)C(=O)c1cc2cnc(Nc3ccc(N4CCNCC4)cn3)nc2n1C1CCCC1 | measured: Neutropenia, AESI | human, HR+/HER2− advanced breast cancer | oral, dose not given, all grades, CTCAE v4.03 | patients with adverse event | 77.9%
C=CC(=O)Nc1cc(Nc2nccc(Nc3cc(Cl)c(F)cc3C(C)(C)O)n2)c(OC)cc1N1CC[C@@H](N(C)C)C1 |  | human patients | oral, 400 mg, treatment-emergent adverse events | patients with dizziness | 20%
Cn1cncc1-c1c(F)cncc1NC(=O)c1c(N)nn2cc(F)cnc12 |  | human patients | oral, 150 mg twice daily, 4 days on 3 days off | patients grade ≥3 Hyponatremia | 0%
C[C@@H]1OC(=O)NN=C1c1ccc(-c2ccc(F)cc2)c(C(F)(F)F)c1 | phase I trial, measured: non-cardiac chest pain all grades | human patients | 5 mg loading then 0.25 mg daily | patients with adverse event | 0%
C[C@]1(O)C[C@@](N)(c2ccc(-c3nc4n(c3-c3ccccc3)COc3ccncc3-4)cc2)C1 |  | human, advanced or metastatic solid tumours | 24 mg intermittent, phase I dose escalation | patients with Rash TEAE | 50%
Cn1nc(NS(C)(=O)=O)c2c(Cl)ccc(-n3c([C@H](Cc4cc(F)cc(F)c4)NC(=O)Cn4nc(C(F)F)c5c4C(F)(F)[C@@H]4C[C@H]54)nc4nc(OCCC(F)(F)F)ccc4c3=O)c21 | measured: total cholesterol grade 3 increase | human | 400 mg once daily, powder in bottle | patients with laboratory abnormality | 0%
COc1ncnn2ccc(-c3cnc4nc(C)n(Cc5nnc([C@@H](C)F)o5)c4c3)c12 |  | human | oral, dose not given, grade 3 | patients with stomatitis | 0%
O=C1Nc2cc3[nH]nc(-c4ccncc4)c3cc2CN1Cc1ccccc1 | CTCAE v4.03 | human, relapsed or refractory advanced solid tumours | intravenous, 1.8 mg/kg, pooled schedules | patients with vomiting | 100%
COc1ccc(-c2c(-c3ccc(C#N)c(F)c3)nc(N3CCC(N)CC3)n(C)c2=O)cc1F | measured: pulmonary hemorrhage | human patients | oral, 60 mg, dose expansion | patients with serious TEAE | 5%
Cc1cn([C@H]2O[C@@H](CO[P@@](=O)(N[C@@H](C)C(=O)OC(C)C)Oc3ccccc3)[C@H](O)[C@H]2F)c(=O)[nH]c1=O | measured: Inflammation | human | 50 mg | patients with TEAE | 0%

Excerpt of the above:
SMILES | test | system | setting | measurement | result
O=C1Nc2cc3[nH]nc(-c4ccncc4)c3cc2CN1Cc1ccccc1 | CTCAE v4.03 | human, relapsed or refractory advanced solid tumours | intravenous, 1.8 mg/kg, pooled schedules | patients with vomiting | 100%
